Measured values pooled from the literature.
Every numbered part comes from another study and shows a few of its results, in no order.

Block 1
Target: RNA binding protein fox-1 homolog 2, RRM domain, GST-SBP tag (RBFOX2, Homo sapiens, UniProt O43251-10, residues 100-194)
Technique: RNA Bind-n-Seq
Molecule type: RNA
Medium: in vitro
Concentration: 365 nM
Notes: natural RNA segment, single round, ends assumed
Baseline: no-protein control
Direction: higher = stronger binding
Residues (chain): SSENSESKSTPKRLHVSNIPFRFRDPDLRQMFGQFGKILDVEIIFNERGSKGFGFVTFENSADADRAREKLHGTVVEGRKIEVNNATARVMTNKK
Oligonucleotide | RBNS enrichment (R)
GGGAGUUCUACAGUCCGACGAUCACAGAACUCCAUUCUAAAACCAUGCAAUGUAAUGAGAACAGAGAUCUUUCCUUUUUAAUGAAAACAUUAGCAUGUUAAUACCCCGUAUGAAUAAUGCCUGACAUUCAACAUGGAAUUCUCGGGUGCCAA | 1.89
GGGAGUUCUACAGUCCGACGAUCAGUAGGGGAGUUUCGGUGUACACAUUGAAUUUUCCACUUAUGUAAAUAAAACGGAUUUUGAUAAAUCAUGGUGAGGAAUCUGUUUGUCCUGGGACUGGGUUCAGUGGUGGUGGAAUUCUCGGGUGCCAA | 0.67
GGGAGUUCUACAGUCCGACGAUCCAAUCCAGCCCACAAAUCCACAUGGCUGUUCCCAGCAGUGCUGUGGUACACUGUGACAGUGGCUCUAGGGGAGGAGGCCAGGAGCCUGGCCACAGUGUUGGCUGGACUCUUGGAAUUCUCGGGUGCCAA | 0.266

Block 2
Target: Prothrombin, mature alpha-thrombin (F2, Homo sapiens, UniProt P00734)
Technique: aptamer microarray, sandwich
Molecule type: DNA with 2'F-ANA
Medium: in vitro
Concentration: 200 nM
Notes: whole 15-mer aptamer, many near background
Added: Cy3 exosite-II aptamer, 400 nM
Direction: higher = stronger binding
Oligonucleotide | mean fluorescence intensity
GGTTGGTGTGGTTGG (2'F-ANA at 3 4 6 7 10 11 12 14 15) | 162 a.u.
GGTTGGTGTGGTTGG (2'F-ANA at 1 2 3 5 7 8 10 11 13 14 15) | 61.9 a.u.
GGTTGGTGTGGTTGG (2'F-ANA at 4 7 11 13 15) | 204 a.u.

Block 3
Target: Histone acetyltransferase KAT6A, winged helix 1, GST fusion (KAT6A, Homo sapiens, UniProt Q92794, residues 1-85)
Technique: protein binding microarray
Molecule type: double-stranded DNA, one strand shown
Medium: in vitro
Concentration: not given
Notes: 8-mer, flanks averaged, mean of 2 arrays, mostly near background
Baseline: not given
Direction: higher = stronger binding
Target sequence (chain): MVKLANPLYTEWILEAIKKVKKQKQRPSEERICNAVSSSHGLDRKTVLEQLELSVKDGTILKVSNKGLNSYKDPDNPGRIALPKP
Oligonucleotide | E-score
CCTGGGAG | -0.0658
AGAAGTAG | -0.123
CAAGTGAC | -0.202
AGAAAGGG | -0.219

Other studies, line by line
Substance | target | assay | system | setting | scale | measurement | result
PhoQ, residues 284 288 289 292 302 303 SLKLQV | PhoP, residues 12 14 15 18 19 LHATL (Escherichia coli, UniProt P23836) | Sort-seq, item: YFP reporter | E. coli | PhoQ-PhoP variant library, added: 10 µM Mg2+ | baseline: high Mg2+ state, higher = stronger signaling | fold induction | 1.23

For quick reference, copied from above (block 1):
Oligonucleotide | RBNS enrichment (R)
GGGAGUUCUACAGUCCGACGAUCCAAUCCAGCCCACAAAUCCACAUGGCUGUUCCCAGCAGUGCUGUGGUACACUGUGACAGUGGCUCUAGGGGAGGAGGCCAGGAGCCUGGCCACAGUGUUGGCUGGACUCUUGGAAUUCUCGGGUGCCAA | 0.266
